# Published values of several laboratories.
# Protocols differ between the studies behind these lines. Values joined by “and” are separate records of one study, mostly repeats; a detail may differ. ± marks the error that the study gave.
SMILES,target or system,test,test system,setting,scale,quantity,value
CC(C)n1ccn2cc(C(=O)NCc3ccc(F)cc3F)c(=O)c(O)c2c1=O,HIV-1,"viral replication, single-round vector infection",IN T97A/G140S/Q148H,,,EC50,260 ± 48.2 nM
CCCCCCCCCCCCCCCCCC(=O)N[C@@H](CCC(=O)NCCCC[C@H](NC(=O)[C@H](CCC(N)=O)NC(=O)[C@H](CCCCN)NC(=O)[C@H](CO)NC(=O)[C@H](CC(C)C)NC(=O)[C@H](CC(=O)O)NC(=O)[C@H](CO)NC(=O)[C@@H](NC(=O)[C@H](Cc1ccccc1)NC(=O)[C@@H](NC(=O)CNC(=O)[C@H](CCC(N)=O)NC(=O)[C@@H](CO)NC(=O)[C@@H](N)Cc1c[nH]cn1)[C@@H](C)O)[C@@H](C)O)C(=O)N[C@@H](CC(=O)O)C(=O)N[C@@H](CCC(=O)O)C(=O)N[C@@H](CCC(N)=O)C(=O)N[C@@H](CC(C)C)C(=O)N[C@@H](C)C(=O)N[C@@H](CCCCN)C(=O)N[C@@H](CC(=O)O)C(=O)N[C@@H](Cc1ccccc1)C(=O)N[C@H](C(=O)N[C@@H](CCC(=O)O)C(=O)N[C@@H](Cc1c[nH]c2ccccc12)C(=O)N[C@@H](CC(C)C)C(=O)N[C@@H](CCCCN)C(=O)N[C@@H](C)C(=O)NCC(=O)NCC(=O)N1CCC[C@H]1C(=O)N[C@@H](CO)C(=O)N[C@@H](CO)C(=O)NCC(=O)N[C@@H](C)C(=O)N1CCC[C@H]1C(=O)N1CCC[C@H]1C(=O)N1CCC[C@H]1C(=O)N[C@@H](CO)C(N)=O)[C@@H](C)CC)C(=O)O,,,"cynomolgus monkey, obese diabetic","dose not given, initial decrease after dosing",,blood glucose,< 100 mg/dL
CC[C@H](C)[C@H](NC(=O)[C@H](Cc1ccccc1)NC(=O)[C@@H](NC(=O)[C@@H](NC(=O)[C@H](CC(C)C)NC(=O)[C@H](CCCCN)NC(=O)[C@@H](N)CCCCN)[C@@H](C)CC)[C@@H](C)O)C(=O)N[C@@H](CC(C)C)C(=O)N[C@@H](CCCCN)C(=O)N[C@@H](CCCCN)C(=O)N[C@H](C(=O)N[C@@H](CCCNC(=N)N)C(=O)N[C@@H](CCC(=O)O)C(=O)N[C@@H](CCCCN)C(=O)N[C@@H](CCCCN)C(=O)N[C@@H](CCCCN)C(=O)N[C@@H](CCC(=O)O)C(=O)N[C@@H](CS)C(=O)N[C@@H](CC(C)C)C(=O)N[C@H](C(=O)O)C(C)C)[C@@H](C)O,TTX-sensitive sodium channel,"resurgent sodium current, open-channel blocker, whole-cell patch clamp",mouse hippocampal CA3 neurons,"200 µM intracellular, 22 °C",,time to peak,5 ± 0.3 ms
Cc1cn(C2CCC(OC(C(=O)O)P(=O)(O)O)C2)c(=O)[nH]c1=O (racemic),HIV-1 reverse transcriptase M184V,"enzyme activity, inhibitor",,"added: poly(rA)·oligo(dT), [3H]dTTP",baseline: mutant over wild type,fold resistance,16 fold
COCCCn1ccn2cc(C(=O)NCc3ccc(F)cc3F)c(=O)c(O)c2c1=O,human immunodeficiency virus 1,single-round vector infection,integrase G140S/Q148H,,,EC50,129 ± 19.5 nM
CC[C@H](C)[C@H](NC(=O)[C@H](CCCCN)NC(=O)[C@H](CCCCN)NC(=O)[C@H](CC(C)C)NC(=O)[C@H](Cc1c[nH]c2ccccc12)NC(=O)CN)C(=O)NCC(=O)N[C@@H](CCCCN)C(=O)N[C@@H](CCCCN)C(=O)N[C@H](C(=O)N[C@@H](CCC(=O)O)C(=O)N[C@@H](CCCNC(=N)N)C(=O)N[C@H](C(=O)NCC(=O)N[C@@H](CCC(N)=O)C(=O)N[C@@H](Cc1c[nH]cn1)C(=O)N[C@H](C(=O)N[C@@H](CCCNC(=N)N)C(=O)N[C@@H](CC(=O)O)C(=O)N[C@@H](C)C(=O)N[C@H](C(=O)N[C@H](C(=O)N[C@@H](CCC(N)=O)C(=O)N[C@H](C(=O)N[C@H](C(=O)NCC(=O)N[C@H](C(=O)N[C@@H](C)C(=O)N[C@@H](CCC(N)=O)C(=O)N[C@@H](CCC(N)=O)C(=O)N[C@@H](C)C(=O)N[C@@H](C)C(=O)N[C@@H](CC(N)=O)C(=O)N[C@H](C(=O)N[C@@H](C)C(=O)N[C@@H](C)C(=O)N[C@H](C(=O)N[C@@H](CC(C)C)C(=O)N[C@@H](CCCCN)C(N)=O)[C@@H](C)O)C(C)C)C(C)C)[C@@H](C)CC)[C@@H](C)O)[C@@H](C)CC)[C@@H](C)O)[C@@H](C)O)C(C)C)[C@@H](C)CC,Escherichia coli,,"ATCC 25922, CAMHB with 10% mouse serum",,,MIC,0.25 µg/mL
CC[C@H](C)[C@H](NC(=O)[C@H](CCCCN)NC(=O)[C@H](Cc1ccc(O)cc1)NC(=O)[C@H](CCC(N)=O)NC(=O)[C@H](Cc1c[nH]cn1)NC(=O)[C@@H](NC(=O)[C@H](Cc1ccccc1)NC(=O)[C@H](Cc1c[nH]cn1)NC(=O)[C@@H](NC(=O)[C@@H](NC(=O)CNC(=O)[C@H](CCCNC(=N)N)NC(=O)[C@H](Cc1c[nH]c2ccccc12)NC(=O)[C@H](CC(C)C)NC(=O)[C@H](CO)NC(=O)[C@H](CCC(=O)O)NC(=O)[C@H](CC(C)C)NC(=O)[C@H](CCC(=O)O)NC(=O)[C@H](CC(N)=O)NC(=O)[C@H](CC(C)C)NC(=O)[C@H](CC(=O)O)NC(=O)[C@H](CO)NC(=O)[C@H](CCC(=O)O)NC(=O)[C@@H](NC(=O)[C@H](CC(C)C)NC(=O)[C@H](CCC(N)=O)NC(=O)[C@H](CCC(=O)O)NC(=O)[C@H](CCC(=O)O)NC(=O)[C@H](CC(C)C)NC(=O)[C@@H]1CCCN1C(=O)[C@@H](N)Cc1ccccc1)[C@@H](C)O)[C@@H](C)O)[C@@H](C)O)C(C)C)C(=O)N[C@@H](CCSC)C(=O)N1CCC[C@H]1C(=O)N[C@@H](Cc1ccccc1)C(=O)N[C@@H](CCCNC(=N)N)C(=O)N[C@@H](CCCCN)C(=O)N[C@@H](CC(C)C)C(=O)N[C@H](C(=O)N[C@@H](Cc1ccccc1)C(=O)N[C@@H](CCCCN)C(=O)N[C@@H](CCCNC(=N)N)C(=O)N[C@@H](CCCNC(=N)N)C(=O)N[C@@H](CCCCN)C(=O)N[C@@H](CC(N)=O)C(N)=O)C(C)C,Escherichia coli,broth microdilution,ATCC 35218,,,MIC,> 50 µM
CN1CCn2cc(C(=O)NCc3ccc(F)cc3F)c(=O)c(O)c2C1=O,human immunodeficiency virus 1,single-round vector infection,integrase S230N,,,EC50,7.4 ± 0.5 nM
Cc1cc(/C=C/C#N)cc(C)c1Nc1nc(Nc2ccc(C#N)cc2)ncc1N,HIV-1,"viral replication, single-round infection",RT mutant D67E,,,EC50,4.5 ± 1.1 nM
Cc1ccc(NS(=O)(=O)c2c(C(=O)N3CCCCCC3)c(C)n(C)c2C)c(Cl)c1,Monkeypox virus,qPCR,"Vero C1008, wild type","100 µM, 72 h",baseline: untreated,relative infection,12.1% and 9.53% and 10.1%
Nc1ccn(C2CCC(OC(C(=O)O)P(=O)(O)O)C2)c(=O)n1 (racemic),HIV-1 reverse transcriptase M184I,"enzyme activity, inhibitor",,"added: poly(rI)·oligo(dC), [3H]dCTP",baseline: mutant over wild type,fold resistance,12 fold
COCC(C)N1CCn2cc(C(=O)NCc3ccc(F)cc3F)c(=O)c(O)c2C1=O (stereo not drawn),human immunodeficiency virus 1,single-round vector infection,integrase G118R,,,EC50,22.1 ± 3.7 nM
Cc1cc(/C=C/C#N)cc(C)c1-n1cnc2cnc(Nc3ccc(C#N)cc3)nc21,HIV-1,"viral replication, single-round infection",RT mutant L100I/K103N,,,EC50,39.8 ± 9.2 nM
O=C(NCc1ccc(F)cc1F)c1cn2ccn(CCCCO)c(=O)c2c(O)c1=O,human immunodeficiency virus 1,single-round vector infection,integrase G140S/Q148H,,,EC50,426 ± 35.8 nM
CCCCCCCCCCCCCCCC(=O)N[C@@H](CCC(=O)NCCOCCOCCC(=O)NCCOCCOCCC(=O)NCCCC[C@H](NC(=O)[C@H](CC(=O)O)NC(=O)[C@H](CC(C)C)NC(=O)[C@H](Cc1ccc(O)cc1)NC(=O)[C@H](CCCCN)NC(=O)[C@H](CO)NC(=O)[C@H](Cc1ccc(O)cc1)NC(=O)[C@H](CC(=O)O)NC(=O)[C@H](CO)NC(=O)[C@@H](NC(=O)[C@H](Cc1ccccc1)NC(=O)[C@@H](NC(=O)CNC(=O)[C@H](CCC(N)=O)NC(=O)[C@@H](CO)NC(=O)[C@@H](N)Cc1c[nH]cn1)[C@@H](C)O)[C@@H](C)O)C(=O)N[C@@H](CCCNC(=N)N)C(=O)N[C@@H](CCCNC(=N)N)C(=O)N[C@@H](C)C(=O)N[C@@H](CCC(N)=O)C(=O)N[C@@H](CC(=O)O)C(=O)N[C@@H](Cc1ccccc1)C(=O)N[C@H](C(=O)N[C@@H](CCC(N)=O)C(=O)N[C@@H](Cc1c[nH]c2ccccc12)C(=O)N[C@@H](CC(C)C)C(=O)N[C@@H](CCSC)C(=O)N[C@@H](CC(N)=O)C(=O)N[C@H](C(=O)NCC(=O)NCC(=O)N1CCC[C@H]1C(=O)N[C@@H](CO)C(=O)N[C@@H](CO)C(=O)NCC(=O)N[C@@H](C)C(=O)N1CCC[C@H]1C(=O)N1CCC[C@H]1C(=O)N1CCC[C@H]1C(=O)N[C@@H](CO)C(N)=O)[C@@H](C)O)C(C)C)C(=O)O,LX-2,"agonist, Western blot",,"200 µM, 48 h",,α-SMA protein level,decreased

# A few entries again:
SMILES,target or system,test,test system,setting,scale,quantity,value
Cc1cn(C2CCC(OC(C(=O)O)P(=O)(O)O)C2)c(=O)[nH]c1=O (racemic),HIV-1 reverse transcriptase M184V,"enzyme activity, inhibitor",,"added: poly(rA)·oligo(dT), [3H]dTTP",baseline: mutant over wild type,fold resistance,16 fold
COCCCn1ccn2cc(C(=O)NCc3ccc(F)cc3F)c(=O)c(O)c2c1=O,human immunodeficiency virus 1,single-round vector infection,integrase G140S/Q148H,,,EC50,129 ± 19.5 nM
